Measurements from different studies.
Protocols differ between the studies behind these lines. Several values in a cell are separate wells, animals, samples, runs or records.
Target: Mitogen-activated protein kinase kinase kinase kinase 2 (MAP4K2, Homo sapiens, UniProt Q12851)

COc1c(OCCCN2CCOCC2)ccc2c1N=C(NC(=O)c1cnc(N)nc1)N1CCN=C21 — remaining activity (kinase activity, inhibitor; 1 µM; baseline: untreated control): 95%
CCn1cc(C(=O)O)c(=O)c2c(N)c(F)c(NC3CCCCC3)cc21 — inhibition (kinase activity; 0.1 µM, added: ATP at Km): -2.2%
Cc1cccc(O[C@H]2CCC[C@@H](C(C)CNCc3ccncc3)C2)c1 (relative stereo) — inhibition (enzyme activity, inhibitor; 1 µM): 1%
COc1cc(Nc2nc(C)cc(-c3cnn4nc(OC)ccc34)n2)cc(C(F)(F)F)c1 — remaining activity (inhibitor; 1 µM; baseline: control): 99%
C=CC(=O)Nc1cccc(-c2cnc3[nH]cc(C(=O)NC(C)(C)C)c3n2)c1 — inhibition (enzyme activity, inhibitor; 0.1 µM): 71%
Nc1ncc(-c2cc(-c3cnn(CC(F)(F)F)c3)ncc2F)nc1C(=O)NC1CNCC(F)C1 (centres unmarked) — remaining activity (enzyme activity; 1 µM; baseline: DMSO control): 96.4%
O=C=[N][Ru-4]123([n]4c5ccc(O)cc5c5c6c(c7cc(F)c[n+]1c7c54)C(=O)NC6=O)[S+]1CC[S+]2CC[S+]3CC1 (centres unmarked) — remaining activity (enzyme activity; 100 nM, human enzyme, added: 10 µM ATP; baseline: untreated): 109%
COc1c(Cl)cccc1Nc1c(-c2ccncc2C#C[C@@]2(C)CCCN2C(=O)/C=C/CN(C)C)[nH]c2c1C(=O)NCC2 — remaining binding (binding, competition with immobilised ligand; 3 µM): 62%
Cc1cnc2nc1Nc1cccc(c1)COC/C=C/COCc1cc(ccc1OCCN1CCOCC1)N2 — remaining binding (binding; 0.1 µM): 81%
O=C(Cc1ccc(OCc2ccccc2)cc1)NC1(C(=O)O)CCN(C(=O)c2ccc(-c3cccc(Cl)c3)cc2)CC1 — activity vs control (enzyme activity, inhibitor; 10 µM): 116%
CNC(=O)C[C@H](Cc1ccc(C#N)cc1)NC(=O)c1cc(-c2ccc(CN[C@H](C)c3ccc(C)cc3)o2)ccc1Cl — activity vs control (enzyme activity, inhibitor; 1 µM): 106%
NC(=O)C[C@H]1CCc2sc3ncnc(O[C@H]4CC[C@H](N5CCOCC5)CC4)c3c21 — inhibition (enzyme activity, inhibitor; 10 µM): 9%
N[C@H]1CC[C@H](Nc2nccc(-c3cccnc3Oc3ccc(NC(=O)NC4CC4)c4ccccc34)n2)CC1 — log2 LFQ intensity (kinobead competition pulldown; HEK293/HCT116 lysate mixture; 10 µM, 1 h, 4 °C; lower = stronger competition): 23.9 and 24 and 24.2
Cc1ccc(-c2c(/C=C(\C#N)C(=O)NC(C)C)n(CCCO)c3ncnc(N)c23)cc1 — remaining binding (cell-free assay, competition with immobilised ligand; 1 µM): 77%
